Measured values of several laboratories.
Protocols differ between the studies behind these lines. ≈ marks a conversion by molar mass, not a printed value.
Organism: Enterococcus faecalis

For `CN(C)[C@@H]1C(O)=C(C(N)=O)C(=O)[C@@]2(O)C(O)=C3C(=O)c4c(O)c(N)nc(F)c4C[C@H]3C[C@@H]12.Cl.Cl`, the MIC was 0.5 µg/mL (broth microdilution CLSI; ATCC 29212).
For `O=C(O)c1ccc(-n2cc(CNc3ccc(Cl)c(C(F)(F)F)c3)c(-c3cccc(F)c3)n2)cc1`, the MBEC was 4 × MIC (ATCC 29212; biofilm, Calgary device).
`Cc1ccc2[nH]nc(-c3nnc(Nc4ccc(O)cc4)s3)c2c1` gave an MIC of 3.9 µg/mL (≈ 12.1 µM) (ATCC 2942).
Under “number of isolates”, `Cc1c2c(nn1C)CSCc1cc(n(C)n1)CSc1cc(c3ccccc3c1)OCCCc1c(C(=O)O)n(C)c3c-2c(Cl)ccc13` is recorded as 3 (broth microdilution MIC; 12.5 µM).
The MIC50 of `CC(=O)NC[C@H]1CN(c2ccc(N3CCOCC3)c(F)c2)C(=O)O1` is reported as 4 µg/mL (≈ 11.9 µM) (vancomycin-intermediate, 10 isolates; pH 8.5).
The MIC of `Cc1cc(O)cc(Nc2nnc(-c3n[nH]c4ccc(C)cc34)s2)c1` is reported as 82.9 µg/mL (≈ 246 µM) (ATCC 2942).
`c1ccc(CN(CCN(Cc2ccccn2)Cc2ccccn2)Cc2ccccn2)nc1` gave an MBC of 500 µM (Calgary Biofilm Device; OG1RF, biofilm; 24 h).
For `CN[C@H](CC(C)C)C(=O)N[C@H]1C(=O)N[C@@H](CC(N)=O)C(=O)N[C@H]2C(=O)N[C@H]3C(=O)N[C@H](C(=O)N[C@H](C(=O)O)c4cc(O)cc(O)c4-c4cc3ccc4O)[C@H](O)c3ccc(c(Cl)c3)Oc3cc2cc(c3O[C@@H]2O[C@H](CO)[C@@H](O)[C@H](O)[C@H]2O[C@H]2C[C@](C)(N)[C@H](O)[C@H](C)O2)Oc2ccc(cc2Cl)[C@H]1O`, the MIC50 was 4 µg/mL (≈ 2.76 µM) (intermediate susceptibility; 50% serum, 10 isolates).
`CN[C@H](CC(C)C)C(=O)N[C@H]1C(=O)N[C@@H](CC(N)=O)C(=O)N[C@H]2C(=O)N[C@H]3C(=O)N[C@H](C(=O)N[C@H](C(=O)O)c4cc(O)cc(O)c4-c4cc3ccc4O)[C@H](O)c3ccc(c(Cl)c3)Oc3cc2cc(c3O[C@@H]2O[C@H](CO)[C@@H](O)[C@H](O)[C@H]2O[C@H]2C[C@](C)(N)[C@H](O)[C@H](C)O2)Oc2ccc(cc2Cl)[C@H]1O` gave an MBC of greater than 32 µg/mL (ATCC 29212; 1 strain).
`CC1(C)S[C@@H]2[C@H](NC(=O)[C@H](N)c3ccccc3)C(=O)N2[C@H]1C(=O)O` gave an MIC90 of greater than 128 µg/mL (agar dilution; vancomycin-intermediate; 20 isolates).
With `O=C(O)c1ccc(-n2cc(CNc3cc(Br)cc(C(F)(F)F)c3)c(-c3cccc(F)c3)n2)cc1` the MBEC was 4 × MIC (ATCC 29212; biofilm, Calgary device).

Excerpt of the above:
`CC1(C)S[C@@H]2[C@H](NC(=O)[C@H](N)c3ccccc3)C(=O)N2[C@H]1C(=O)O` gave an MIC90 of greater than 128 µg/mL (agar dilution; vancomycin-intermediate; 20 isolates).
